Values quoted from earlier work as cited in several papers.
Values joined by “and” are separate records of one study, mostly repeats; a detail may differ.

`Cc1ccc(-c2nc3ccc(C)cn3c2CC(=O)N(C)C)cc1` has a fraction unbound of 0.13 (mouse).
For `O=c1[nH]c2ccccc2n1C1CCN(CCCC(c2ccc(F)cc2)c2ccc(F)cc2)CC1`, the Cmax was 8 nM (human, plasma; concentration not given, median of reported values).
Under “log partition coefficient”, `COc1ccc2c3c1O[C@H]1[C@@H](O)C=C[C@H]4[C@@H](C2)N(C)CC[C@@]341` is recorded as 1.2.
For `CN1C(=O)CN=C(c2ccccc2)c2cc(Cl)ccc21`, the blood-to-plasma ratio was 0.62 (human; average of reported values).
Under “amount in tissue”, `c1ccc2c(c1)Cc1ccccc1-2` is recorded as 1.15 ng/well and 1.19 ng/well and 1.1 ng/well (zebrafish embryos, whole embryo; 89.59 ng/well, 48 hpf, single exposure).
`CC(C(=O)O)c1ccc(-c2ccccc2)c(F)c1` (stereo not shown) gave an oral bioavailability of 95% (human).
`CN1C(=O)CN=C(c2ccccc2)c2cc(Cl)ccc21` gave a Cmax of 1110 nM (plasma; concentration not given, total, steady state).
With `COC(=O)[C@H](c1ccccc1)[C@H]1CCCCN1` the half-life was 2.6 h (human, by CES1 genotype, plasma; oral, 10 mg methylphenidate, single dose, median).
The Vd of `Cc1ncc2n1-c1ccc(Cl)cc1C(c1ccccc1F)=NC2` is reported as 100 to 150 L (human).
`Cc1nnc2n1-c1ccc(Cl)cc1C(c1ccccc1)=NC2` gave a free Cmax of 19.7 nM (human).
The fraction absorbed of `Cc1ncc(OC[C@@]2(c3cccc(F)c3)C[C@H]2C(=O)Nc2ccc(F)cn2)c(C)n1` is reported as 87% (human).
The fraction unbound of `CC(NC(C)(C)C)C(=O)c1cccc(Cl)c1` (stereo not shown) is reported as 0.213 (dog).
For `CC(NC(C)(C)C)C(=O)c1cccc(Cl)c1` (stereo not shown), the Cmax was 734 nM (plasma; concentration not given, total, literature data).
With `O=c1[nH]c2ccccc2n1CCCN1CCC(n2c(=O)[nH]c3cc(Cl)ccc32)CC1` the solubility was under 1000 µg/mL (water).
The Cmax of `COc1cccc(C2(O)CCCCC2CN(C)C)c1` (stereo not shown) is reported as 273 to 2350 nM (human, plasma; concentration not given, range of reported values).
The free Cmax of `O=c1[nH]c2ccccc2n1C1CCN(CCCC(c2ccc(F)cc2)c2ccc(F)cc2)CC1` is reported as 8.7 nM (human).
With `COc1ccc2c3c1O[C@H]1C(=O)CC[C@H]4[C@@H](C2)N(C)CC[C@]314` the fraction unbound was 0.41 (mouse).
`O=C(O)[C@H](c1ccccc1)[C@H]1CCCCN1` gave a Tmax of 2 h (human, by CES1 genotype, plasma; oral, 10 mg methylphenidate, single dose, median).
`CN1C(=O)CN=C(c2ccccc2)c2cc(Cl)ccc21` has a blood-to-plasma ratio of 0.71 (human).
The clearance of `Cc1ncc2n1-c1ccc(Cl)cc1C(c1ccccc1F)=NC2` is reported as 150 L/h (human).
`Cc1ncc2n1-c1ccc(Cl)cc1C(c1ccccc1F)=NC2` gave a plasma clearance of 5.15 mL/min/kg (human; average of reported values).
For `Cc1ncc2n1-c1ccc(Cl)cc1C(c1ccccc1F)=NC2`, the CLint was 70 µL/min/mg protein (human liver microsomes).

A few entries again:
Under “log partition coefficient”, `COc1ccc2c3c1O[C@H]1[C@@H](O)C=C[C@H]4[C@@H](C2)N(C)CC[C@@]341` is recorded as 1.2.
For `CN1C(=O)CN=C(c2ccccc2)c2cc(Cl)ccc21`, the blood-to-plasma ratio was 0.62 (human; average of reported values).
